Results gathered from unrelated publications.
Protocols differ between the studies behind these lines. ± gives the spread as reported.
VIPR2: Vasoactive intestinal polypeptide receptor 2 (VIPR2, Homo sapiens, UniProt P41587)
Sequence of UniProt P41587 (whole entry, looked up): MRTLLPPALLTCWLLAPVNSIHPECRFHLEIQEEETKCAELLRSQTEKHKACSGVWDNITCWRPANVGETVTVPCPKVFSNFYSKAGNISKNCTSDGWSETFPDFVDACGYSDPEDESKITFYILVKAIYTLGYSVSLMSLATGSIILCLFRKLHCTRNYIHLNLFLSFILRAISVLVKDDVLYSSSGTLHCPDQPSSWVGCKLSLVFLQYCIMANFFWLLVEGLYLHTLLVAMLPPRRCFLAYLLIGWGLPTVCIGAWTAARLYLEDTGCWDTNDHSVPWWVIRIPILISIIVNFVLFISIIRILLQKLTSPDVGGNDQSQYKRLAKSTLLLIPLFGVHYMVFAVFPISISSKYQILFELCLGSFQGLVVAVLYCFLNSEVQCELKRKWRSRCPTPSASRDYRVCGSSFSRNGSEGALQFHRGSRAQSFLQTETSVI
Sequence of UniProt P14416 (whole entry, looked up): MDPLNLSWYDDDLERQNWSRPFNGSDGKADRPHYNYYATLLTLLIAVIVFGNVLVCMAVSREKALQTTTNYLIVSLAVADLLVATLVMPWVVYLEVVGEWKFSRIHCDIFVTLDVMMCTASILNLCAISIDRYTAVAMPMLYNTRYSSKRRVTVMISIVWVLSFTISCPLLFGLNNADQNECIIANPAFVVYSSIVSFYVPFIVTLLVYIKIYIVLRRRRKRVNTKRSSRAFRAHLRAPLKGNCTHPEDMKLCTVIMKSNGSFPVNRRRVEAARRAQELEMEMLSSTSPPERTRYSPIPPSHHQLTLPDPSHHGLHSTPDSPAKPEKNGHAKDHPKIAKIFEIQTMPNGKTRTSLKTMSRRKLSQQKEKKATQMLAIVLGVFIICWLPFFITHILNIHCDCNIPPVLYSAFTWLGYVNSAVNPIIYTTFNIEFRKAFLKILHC
Sequence of UniProt P55786 (whole entry, looked up): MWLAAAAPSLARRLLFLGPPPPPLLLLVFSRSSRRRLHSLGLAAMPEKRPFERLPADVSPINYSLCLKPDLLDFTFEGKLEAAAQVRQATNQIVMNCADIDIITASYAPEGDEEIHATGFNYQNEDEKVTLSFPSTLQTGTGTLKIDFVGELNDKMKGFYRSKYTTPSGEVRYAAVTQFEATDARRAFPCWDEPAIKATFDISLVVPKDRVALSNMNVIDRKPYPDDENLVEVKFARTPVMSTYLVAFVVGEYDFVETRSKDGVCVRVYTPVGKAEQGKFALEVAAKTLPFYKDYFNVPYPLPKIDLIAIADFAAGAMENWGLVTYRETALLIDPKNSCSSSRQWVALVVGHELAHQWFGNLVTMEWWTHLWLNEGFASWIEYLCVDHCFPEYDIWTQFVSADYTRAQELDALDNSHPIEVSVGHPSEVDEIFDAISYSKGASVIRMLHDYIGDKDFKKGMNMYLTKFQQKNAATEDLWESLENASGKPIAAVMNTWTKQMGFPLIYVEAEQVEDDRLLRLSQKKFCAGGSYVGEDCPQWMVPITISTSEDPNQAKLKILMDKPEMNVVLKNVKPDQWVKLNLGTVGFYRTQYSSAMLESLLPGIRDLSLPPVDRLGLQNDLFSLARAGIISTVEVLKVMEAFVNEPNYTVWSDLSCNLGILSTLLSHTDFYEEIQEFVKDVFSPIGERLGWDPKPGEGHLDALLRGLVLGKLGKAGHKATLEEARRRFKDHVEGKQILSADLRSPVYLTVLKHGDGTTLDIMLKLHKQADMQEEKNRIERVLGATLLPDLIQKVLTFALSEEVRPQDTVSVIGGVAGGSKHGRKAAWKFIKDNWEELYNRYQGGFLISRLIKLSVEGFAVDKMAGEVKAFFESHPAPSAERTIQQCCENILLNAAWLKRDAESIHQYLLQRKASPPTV
Sequence of UniProt P31645 (whole entry, looked up): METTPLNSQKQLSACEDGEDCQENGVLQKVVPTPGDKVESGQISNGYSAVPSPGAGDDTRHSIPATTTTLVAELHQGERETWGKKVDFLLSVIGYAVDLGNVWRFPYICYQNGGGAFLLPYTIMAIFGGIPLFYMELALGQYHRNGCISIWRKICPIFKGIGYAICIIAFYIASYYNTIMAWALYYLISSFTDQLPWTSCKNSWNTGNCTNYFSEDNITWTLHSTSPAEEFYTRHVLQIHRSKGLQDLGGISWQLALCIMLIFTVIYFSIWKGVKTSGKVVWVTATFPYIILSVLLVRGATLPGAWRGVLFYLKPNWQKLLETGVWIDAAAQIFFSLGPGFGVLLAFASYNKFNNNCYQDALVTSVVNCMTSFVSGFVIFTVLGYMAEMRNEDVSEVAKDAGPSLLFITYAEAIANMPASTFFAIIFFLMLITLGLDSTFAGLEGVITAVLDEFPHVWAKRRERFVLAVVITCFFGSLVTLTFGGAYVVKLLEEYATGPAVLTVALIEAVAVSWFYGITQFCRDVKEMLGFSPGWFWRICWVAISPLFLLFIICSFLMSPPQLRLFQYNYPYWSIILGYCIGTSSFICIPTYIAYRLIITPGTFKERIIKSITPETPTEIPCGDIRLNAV
Sequence of UniProt P35462 (whole entry, looked up): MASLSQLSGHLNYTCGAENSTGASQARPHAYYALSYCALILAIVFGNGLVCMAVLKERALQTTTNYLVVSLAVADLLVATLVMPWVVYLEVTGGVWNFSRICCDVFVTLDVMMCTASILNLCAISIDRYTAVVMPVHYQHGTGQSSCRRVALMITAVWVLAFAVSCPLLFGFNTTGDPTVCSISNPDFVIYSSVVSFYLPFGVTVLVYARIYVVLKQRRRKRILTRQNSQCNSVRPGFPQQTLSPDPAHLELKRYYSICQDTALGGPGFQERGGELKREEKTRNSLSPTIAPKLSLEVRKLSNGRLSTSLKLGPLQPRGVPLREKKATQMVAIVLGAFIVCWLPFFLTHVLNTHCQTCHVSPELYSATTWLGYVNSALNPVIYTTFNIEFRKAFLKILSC
Sequence of UniProt P43235 (whole entry, looked up): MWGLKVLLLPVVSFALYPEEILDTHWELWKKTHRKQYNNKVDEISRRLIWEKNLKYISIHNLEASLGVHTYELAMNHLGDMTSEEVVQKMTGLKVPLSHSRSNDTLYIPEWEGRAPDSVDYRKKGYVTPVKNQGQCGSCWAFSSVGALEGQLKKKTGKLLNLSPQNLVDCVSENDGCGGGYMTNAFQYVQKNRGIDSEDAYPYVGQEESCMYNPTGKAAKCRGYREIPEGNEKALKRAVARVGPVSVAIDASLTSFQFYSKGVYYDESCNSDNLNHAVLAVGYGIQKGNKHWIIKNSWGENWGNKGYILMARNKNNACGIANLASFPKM
Sequence of UniProt P21554 (whole entry, unmodified, looked up): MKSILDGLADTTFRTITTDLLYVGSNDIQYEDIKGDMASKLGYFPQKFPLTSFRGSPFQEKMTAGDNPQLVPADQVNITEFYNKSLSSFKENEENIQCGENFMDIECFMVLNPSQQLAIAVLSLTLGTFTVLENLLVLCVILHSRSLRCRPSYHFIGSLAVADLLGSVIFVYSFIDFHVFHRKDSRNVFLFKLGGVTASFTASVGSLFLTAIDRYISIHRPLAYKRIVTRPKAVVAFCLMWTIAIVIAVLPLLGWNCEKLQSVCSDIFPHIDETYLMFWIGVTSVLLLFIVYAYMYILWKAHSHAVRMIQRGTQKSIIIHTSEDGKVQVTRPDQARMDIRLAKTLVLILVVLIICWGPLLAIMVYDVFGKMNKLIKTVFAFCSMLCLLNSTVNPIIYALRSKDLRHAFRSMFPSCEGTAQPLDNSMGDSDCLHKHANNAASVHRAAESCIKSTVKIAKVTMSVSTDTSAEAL
Sequence of UniProt O43613 (whole entry, looked up): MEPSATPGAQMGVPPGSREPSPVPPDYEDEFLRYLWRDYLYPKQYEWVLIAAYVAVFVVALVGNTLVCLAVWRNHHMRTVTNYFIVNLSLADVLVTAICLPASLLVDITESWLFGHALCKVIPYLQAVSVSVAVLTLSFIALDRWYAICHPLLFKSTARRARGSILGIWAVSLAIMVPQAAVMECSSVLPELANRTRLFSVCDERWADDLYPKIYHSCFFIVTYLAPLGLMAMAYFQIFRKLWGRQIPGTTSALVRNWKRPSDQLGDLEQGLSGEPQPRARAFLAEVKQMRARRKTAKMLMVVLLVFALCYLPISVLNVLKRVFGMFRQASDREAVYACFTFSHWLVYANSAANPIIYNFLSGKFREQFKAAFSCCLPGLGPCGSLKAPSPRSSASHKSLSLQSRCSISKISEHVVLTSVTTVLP
Sequence of UniProt P41143 (whole entry, unmodified, looked up): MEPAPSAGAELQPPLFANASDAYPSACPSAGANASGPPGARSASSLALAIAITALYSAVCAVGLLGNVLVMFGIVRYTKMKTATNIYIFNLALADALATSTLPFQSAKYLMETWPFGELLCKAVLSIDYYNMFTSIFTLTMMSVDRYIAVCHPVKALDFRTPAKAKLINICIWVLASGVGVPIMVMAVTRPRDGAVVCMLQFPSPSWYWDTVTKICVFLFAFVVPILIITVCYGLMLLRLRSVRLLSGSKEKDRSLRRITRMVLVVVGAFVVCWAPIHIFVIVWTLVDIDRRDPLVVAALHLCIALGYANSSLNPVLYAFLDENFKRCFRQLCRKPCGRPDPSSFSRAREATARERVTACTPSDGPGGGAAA

Structure (SMILES)	target	test	test system	conditions	endpoint	value
O=C(O)CCn1c(=O)oc2cc(Cl)c(Cl)cc21	Sodium-dependent serotonin transporter (SLC6A4, Homo sapiens, UniProt P31645)	antagonist		median value	IC50	> 100000 nM
CCN(CC)C(=O)[C@@H]1C=C2c3cccc4c3c(cn4C(=O)c3ccco3)C[C@H]2N(C)C1	D(3) dopamine receptor (DRD3, Homo sapiens, UniProt P35462)	ligand displacement, radioligand			Ki	1430 nM
CN(C)[C@H](CNC(=O)/C=C/c1cccc2ccccc12)Cc1ccc(O)cc1	D(2) dopamine receptor (DRD2, Homo sapiens, UniProt P14416)	cell-free assay			Ki	2200 nM
CN(C)c1ncnc2c1ncn2[C@@H]1O[C@H](CCl)[C@@H](NC(=O)[C@H](CSC23CC4CC(CC(C4)C2)C3)NC(=O)OC(C)(C)C)[C@H]1O	Puromycin-sensitive aminopeptidase (Homo sapiens, UniProt P55786)	enzyme activity, inhibitor, fluorescence			IC50	2300 nM
CC(C)CC(C(=O)N1CC2(CC1C#N)C(=O)Nc1ccccc12)N(C)C(=O)c1cc2c(F)cc(F)c(F)c2[nH]1 (centres unmarked)	Cathepsin K (CTSK, Homo sapiens, UniProt P43235)	enzyme activity, inhibitor			IC50	18500 nM
CSCC[C@H](NC(=O)[C@H](CCC(N)=O)NC(=O)[C@H](CCCCN)NC(=O)[C@H](CCCNC(=N)N)NC(=O)[C@H](Cc1ccc(O)cc1)NC(=O)[C@H](CCCNC(=N)N)NC(=O)[C@H](CO)NC(=O)[C@H](Cc1ccc(O)cc1)NC(=O)[C@H](CO)NC(=O)[C@H](CC(=O)O)NC(=O)[C@@H](NC(=O)[C@@H](N)Cc1ccccc1)[C@@H](C)O)C(=O)N[C@@H](C)C(=O)N[C@H](C(=O)N[C@@H](CCCCN)C(=O)N[C@@H](CCCCN)C(=O)N[C@@H](Cc1ccc(O)cc1)C(=O)N[C@@H](CC(C)C)C(=O)N[C@@H](C)C(=O)N[C@@H](C)C(=O)N[C@H](C(=O)N[C@@H](CC(C)C)C(=O)NCC(=O)N[C@@H](CCCCN)C(=O)N[C@@H](CCCNC(=N)N)C(=O)N[C@@H](Cc1ccc(O)cc1)C(=O)N[C@@H](CCCCN)C(=O)N[C@@H](CCC(N)=O)C(=O)N[C@@H](CCCNC(=N)N)C(=O)N[C@H](C(=O)N[C@@H](CCCCN)C(=O)N[C@@H](CC(N)=O)C(=O)N[C@@H](CCCCn1cc(C[C@H](NC(=O)CNC(=O)[C@H](CO)NC(=O)[C@H](CCCNC(=N)N)NC(=O)[C@H](CO)NC(=O)[C@H](CC(C)C)NC(=O)[C@H](CC(C)C)NC(=O)CNC(=O)[C@H](C)NC(=O)[C@H](CC(C)C)NC(=O)[C@H](CCCNC(=N)N)NC(=O)[C@H](Cc2c[nH]cn2)NC(=O)[C@@H](NC(=O)[C@@H](N)C(C)C)[C@@H](C)O)C(=O)N[C@H](C(=O)N[C@H](C(=O)N[C@@H](CCCCN)C(=O)N[C@@H](CC(N)=O)C(=O)N[C@@H](CC(N)=O)C(=O)N[C@@H](Cc2ccccc2)C(=O)N[C@H](C(=O)N2CCC[C@H]2C(=O)N[C@H](C(=O)N[C@@H](CC(N)=O)C(=O)N[C@H](C(=O)NCC(=O)N[C@@H](CO)C(=O)N[C@@H](CCCCN)C(=O)N[C@@H](C)C(=O)N[C@@H](Cc2ccccc2)C(N)=O)C(C)C)[C@@H](C)O)C(C)C)C(C)C)C(C)C)nn1)C(N)=O)C(C)C)C(C)C)C(C)C	VIPR2	cAMP accumulation, antagonist	COS-7 transfected	from pA2, single concentration, together with: PACAP-38	Kb	2090 nM
Cc1ccc2c(C(C[N+](=O)[O-])c3cccs3)c(-c3ccccc3)[nH]c2c1 (centres unmarked)	Cannabinoid receptor 1 (CNR1, Homo sapiens, UniProt P21554, Y397A)	β-arrestin recruitment, agonist, luciferase			EC50	580 nM
CSCC[C@H](NC(=O)[C@H](CCC(N)=O)NC(=O)[C@H](CCCCN)NC(=O)[C@H](CCCNC(=N)N)NC(=O)[C@H](Cc1ccc(O)cc1)NC(=O)[C@H](CCCNC(=N)N)NC(=O)[C@H](CO)NC(=O)[C@H](Cc1ccc(O)cc1)NC(=O)[C@H](CO)NC(=O)[C@H](CC(=O)O)NC(=O)[C@@H](NC(=O)[C@@H](N)Cc1ccccc1)[C@@H](C)O)C(=O)N[C@@H](C)C(=O)N[C@H](C(=O)N[C@@H](CCCCN)C(=O)N[C@@H](CCCCn1cc(C[C@H](NC(=O)CNC(=O)[C@H](CO)NC(=O)[C@H](CCCNC(=N)N)NC(=O)[C@H](CO)NC(=O)[C@H](CC(C)C)NC(=O)[C@H](CC(C)C)NC(=O)CNC(=O)[C@H](C)NC(=O)[C@H](CC(C)C)NC(=O)[C@H](CCCNC(=N)N)NC(=O)[C@H](Cc2c[nH]cn2)NC(=O)[C@@H](NC(=O)[C@@H](N)C(C)C)[C@@H](C)O)C(=O)N[C@H](C(=O)N[C@H](C(=O)N[C@@H](CCCCN)C(=O)N[C@@H](CC(N)=O)C(=O)N[C@@H](CC(N)=O)C(=O)N[C@@H](Cc2ccccc2)C(=O)N[C@H](C(=O)N2CCC[C@H]2C(=O)N[C@H](C(=O)N[C@@H](CC(N)=O)C(=O)N[C@H](C(=O)NCC(=O)N[C@@H](CO)C(=O)N[C@@H](CCCCN)C(=O)N[C@@H](C)C(=O)N[C@@H](Cc2ccccc2)C(N)=O)C(C)C)[C@@H](C)O)C(C)C)C(C)C)C(C)C)nn1)C(=O)N[C@@H](Cc1ccc(O)cc1)C(=O)N[C@@H](CC(C)C)C(=O)N[C@@H](C)C(=O)N[C@@H](C)C(=O)N[C@H](C(=O)N[C@@H](CC(C)C)C(=O)NCC(=O)N[C@@H](CCCCN)C(=O)N[C@@H](CCCNC(=N)N)C(=O)N[C@@H](Cc1ccc(O)cc1)C(=O)N[C@@H](CCCCN)C(=O)N[C@@H](CCC(N)=O)C(=O)N[C@@H](CCCNC(=N)N)C(=O)N[C@H](C(=O)N[C@@H](CCCCN)C(=O)N[C@@H](CC(N)=O)C(=O)N[C@@H](CCCCN)C(N)=O)C(C)C)C(C)C)C(C)C	VIPR2	cAMP, antagonist			Kb	> 10000 nM
C[C@@H](Cc1ccsc1)NC(=O)NC[C@H](Cc1ccc(O)cc1)N(C)C	Orexin/Hypocretin receptor type 1 (HCRTR1, Homo sapiens, UniProt O43613)				Ki	> 50000 nM
CSCC[C@H](NC(=O)[C@H](CCC(N)=O)NC(=O)[C@H](CCCCN)NC(=O)[C@H](CCCNC(=N)N)NC(=O)[C@H](Cc1ccc(O)cc1)NC(=O)[C@H](CCCNC(=N)N)NC(=O)[C@H](CO)NC(=O)[C@H](Cc1ccc(O)cc1)NC(=O)[C@H](CO)NC(=O)[C@H](CC(=O)O)NC(=O)[C@@H](NC(=O)[C@@H](N)Cc1ccccc1)[C@@H](C)O)C(=O)N[C@@H](C)C(=O)N[C@H](C(=O)N[C@@H](CCCCN)C(=O)N[C@@H](CCCCN)C(=O)N[C@@H](Cc1ccc(O)cc1)C(=O)N[C@@H](CC(C)C)C(=O)N[C@@H](C)C(=O)N[C@@H](C)C(=O)N[C@H](C(=O)N[C@@H](CC(C)C)C(=O)NCC(=O)N[C@@H](CCCCN)C(=O)N[C@@H](CCCNC(=N)N)C(=O)N[C@@H](Cc1ccc(O)cc1)C(=O)N[C@@H](CCCCN)C(=O)N[C@@H](CCC(N)=O)C(=O)N[C@@H](CCCCn1cc(C[C@H](NC(=O)CNC(=O)[C@H](CO)NC(=O)[C@H](CCCNC(=N)N)NC(=O)[C@H](CO)NC(=O)[C@H](CC(C)C)NC(=O)[C@H](CC(C)C)NC(=O)CNC(=O)[C@H](C)NC(=O)[C@H](CC(C)C)NC(=O)[C@H](CCCNC(=N)N)NC(=O)[C@H](Cc2c[nH]cn2)NC(=O)[C@@H](NC(=O)[C@@H](N)C(C)C)[C@@H](C)O)C(=O)N[C@H](C(=O)N[C@H](C(=O)N[C@@H](CCCCN)C(=O)N[C@@H](CC(N)=O)C(=O)N[C@@H](CC(N)=O)C(=O)N[C@@H](Cc2ccccc2)C(=O)N[C@H](C(=O)N2CCC[C@H]2C(=O)N[C@H](C(=O)N[C@@H](CC(N)=O)C(=O)N[C@H](C(=O)NCC(=O)N[C@@H](CO)C(=O)N[C@@H](CCCCN)C(=O)N[C@@H](C)C(=O)N[C@@H](Cc2ccccc2)C(N)=O)C(C)C)[C@@H](C)O)C(C)C)C(C)C)C(C)C)nn1)C(=O)N[C@H](C(=O)N[C@@H](CCCCN)C(=O)N[C@@H](CC(N)=O)C(=O)N[C@@H](CCCCN)C(N)=O)C(C)C)C(C)C)C(C)C	VIPR2	cAMP, antagonist			Kb	> 10000 nM
CCN(CC)C(=O)c1ccc(C(c2cccc(O)c2)N2CC(C)N(Cc3ccccc3)CC2C)cc1 (centres unmarked)	Delta-type opioid receptor (OPRD1, Homo sapiens, UniProt P41143, I304A)				Ki	0.57 ± 0.19 nM

For quick reference, copied from above:
Structure (SMILES)	target	test	test system	conditions	endpoint	value
CSCC[C@H](NC(=O)[C@H](CCC(N)=O)NC(=O)[C@H](CCCCN)NC(=O)[C@H](CCCNC(=N)N)NC(=O)[C@H](Cc1ccc(O)cc1)NC(=O)[C@H](CCCNC(=N)N)NC(=O)[C@H](CO)NC(=O)[C@H](Cc1ccc(O)cc1)NC(=O)[C@H](CO)NC(=O)[C@H](CC(=O)O)NC(=O)[C@@H](NC(=O)[C@@H](N)Cc1ccccc1)[C@@H](C)O)C(=O)N[C@@H](C)C(=O)N[C@H](C(=O)N[C@@H](CCCCN)C(=O)N[C@@H](CCCCN)C(=O)N[C@@H](Cc1ccc(O)cc1)C(=O)N[C@@H](CC(C)C)C(=O)N[C@@H](C)C(=O)N[C@@H](C)C(=O)N[C@H](C(=O)N[C@@H](CC(C)C)C(=O)NCC(=O)N[C@@H](CCCCN)C(=O)N[C@@H](CCCNC(=N)N)C(=O)N[C@@H](Cc1ccc(O)cc1)C(=O)N[C@@H](CCCCN)C(=O)N[C@@H](CCC(N)=O)C(=O)N[C@@H](CCCCn1cc(C[C@H](NC(=O)CNC(=O)[C@H](CO)NC(=O)[C@H](CCCNC(=N)N)NC(=O)[C@H](CO)NC(=O)[C@H](CC(C)C)NC(=O)[C@H](CC(C)C)NC(=O)CNC(=O)[C@H](C)NC(=O)[C@H](CC(C)C)NC(=O)[C@H](CCCNC(=N)N)NC(=O)[C@H](Cc2c[nH]cn2)NC(=O)[C@@H](NC(=O)[C@@H](N)C(C)C)[C@@H](C)O)C(=O)N[C@H](C(=O)N[C@H](C(=O)N[C@@H](CCCCN)C(=O)N[C@@H](CC(N)=O)C(=O)N[C@@H](CC(N)=O)C(=O)N[C@@H](Cc2ccccc2)C(=O)N[C@H](C(=O)N2CCC[C@H]2C(=O)N[C@H](C(=O)N[C@@H](CC(N)=O)C(=O)N[C@H](C(=O)NCC(=O)N[C@@H](CO)C(=O)N[C@@H](CCCCN)C(=O)N[C@@H](C)C(=O)N[C@@H](Cc2ccccc2)C(N)=O)C(C)C)[C@@H](C)O)C(C)C)C(C)C)C(C)C)nn1)C(=O)N[C@H](C(=O)N[C@@H](CCCCN)C(=O)N[C@@H](CC(N)=O)C(=O)N[C@@H](CCCCN)C(N)=O)C(C)C)C(C)C)C(C)C	VIPR2	cAMP, antagonist			Kb	> 10000 nM
CSCC[C@H](NC(=O)[C@H](CCC(N)=O)NC(=O)[C@H](CCCCN)NC(=O)[C@H](CCCNC(=N)N)NC(=O)[C@H](Cc1ccc(O)cc1)NC(=O)[C@H](CCCNC(=N)N)NC(=O)[C@H](CO)NC(=O)[C@H](Cc1ccc(O)cc1)NC(=O)[C@H](CO)NC(=O)[C@H](CC(=O)O)NC(=O)[C@@H](NC(=O)[C@@H](N)Cc1ccccc1)[C@@H](C)O)C(=O)N[C@@H](C)C(=O)N[C@H](C(=O)N[C@@H](CCCCN)C(=O)N[C@@H](CCCCN)C(=O)N[C@@H](Cc1ccc(O)cc1)C(=O)N[C@@H](CC(C)C)C(=O)N[C@@H](C)C(=O)N[C@@H](C)C(=O)N[C@H](C(=O)N[C@@H](CC(C)C)C(=O)NCC(=O)N[C@@H](CCCCN)C(=O)N[C@@H](CCCNC(=N)N)C(=O)N[C@@H](Cc1ccc(O)cc1)C(=O)N[C@@H](CCCCN)C(=O)N[C@@H](CCC(N)=O)C(=O)N[C@@H](CCCNC(=N)N)C(=O)N[C@H](C(=O)N[C@@H](CCCCN)C(=O)N[C@@H](CC(N)=O)C(=O)N[C@@H](CCCCn1cc(C[C@H](NC(=O)CNC(=O)[C@H](CO)NC(=O)[C@H](CCCNC(=N)N)NC(=O)[C@H](CO)NC(=O)[C@H](CC(C)C)NC(=O)[C@H](CC(C)C)NC(=O)CNC(=O)[C@H](C)NC(=O)[C@H](CC(C)C)NC(=O)[C@H](CCCNC(=N)N)NC(=O)[C@H](Cc2c[nH]cn2)NC(=O)[C@@H](NC(=O)[C@@H](N)C(C)C)[C@@H](C)O)C(=O)N[C@H](C(=O)N[C@H](C(=O)N[C@@H](CCCCN)C(=O)N[C@@H](CC(N)=O)C(=O)N[C@@H](CC(N)=O)C(=O)N[C@@H](Cc2ccccc2)C(=O)N[C@H](C(=O)N2CCC[C@H]2C(=O)N[C@H](C(=O)N[C@@H](CC(N)=O)C(=O)N[C@H](C(=O)NCC(=O)N[C@@H](CO)C(=O)N[C@@H](CCCCN)C(=O)N[C@@H](C)C(=O)N[C@@H](Cc2ccccc2)C(N)=O)C(C)C)[C@@H](C)O)C(C)C)C(C)C)C(C)C)nn1)C(N)=O)C(C)C)C(C)C)C(C)C	VIPR2	cAMP accumulation, antagonist	COS-7 transfected	from pA2, single concentration, together with: PACAP-38	Kb	2090 nM
